# Assay results gathered from unrelated publications.
# Numbers after ± are the reported error.
Compound,host,sample,route,dose,time,notes,Tmax
CCCCCCCCCCCCCC(=O)N[C@H](CCN)C(=O)N[C@@H]1C(=O)N[C@@H](CCN)C(=O)N[C@@H](CC(C)C)C(=O)N[C@@H](CCN)C(=O)N[C@H](Cc2ccccc2)C(=O)N[C@@H](CC(C)C)C(=O)N[C@@H](CCN)C(=O)N[C@H](CCN)C(=O)N[C@@H](C(C)C)C(=O)N[C@@H](CC(=O)O)C(=O)O[C@@H]1C,rat,plasma,subcutaneous,10 mg/kg,,,8 h
CC1(C)C(=O)N(c2ccc(C#N)c(C(F)(F)F)c2)C(=S)N1c1ccc(C(N)=O)c(F)c1,healthy male humans,plasma,oral,160 mg,,"fasting, soft capsules",228 ± 106 h
CCOc1ccccc1-n1c(CN2CCNCC2)nc2ccccc2c1=O,"C57BL/6 mouse, male",plasma,intravenous,1 mg/kg,,,0.08 h
CC1(C)C(=O)N(c2ccc(C#N)c(C(F)(F)F)c2)C(=S)N1c1ccc(C(=O)O)c(F)c1,"human, male",plasma,oral,160 mg,,"single dose, after high-fat meal",67.6 ± 56.6 h
CCCCCCCCCCCCCCCC(=O)N[C@@H](CCC(=O)NCCOCCOCCC(=O)NCCOCCOCCC(=O)NCCCC[C@H](NC(=O)[C@H](CC(=O)O)NC(=O)[C@H](CC(C)C)NC(=O)[C@H](Cc1ccc(O)cc1)NC(=O)[C@H](CCCCN)NC(=O)[C@H](CO)NC(=O)[C@H](Cc1ccc(O)cc1)NC(=O)[C@H](CC(=O)O)NC(=O)[C@H](CO)NC(=O)[C@@H](NC(=O)[C@H](Cc1ccccc1)NC(=O)[C@@H](NC(=O)CNC(=O)[C@H](CCC(N)=O)NC(=O)[C@@H](CO)NC(=O)[C@@H](N)Cc1c[nH]cn1)[C@@H](C)O)[C@@H](C)O)C(=O)N[C@@H](CCCNC(=N)N)C(=O)N[C@@H](CCCNC(=N)N)C(=O)N[C@@H](C)C(=O)N[C@@H](CCC(N)=O)C(=O)N[C@@H](CC(=O)O)C(=O)N[C@@H](Cc1ccccc1)C(=O)N[C@H](C(=O)N[C@@H](CCC(N)=O)C(=O)N[C@@H](Cc1c[nH]c2ccccc12)C(=O)N[C@@H](CC(C)C)C(=O)N[C@@H](CC(C)C)C(=O)N[C@@H](CC(N)=O)C(=O)N[C@H](C(=O)NCC(=O)NCC(=O)N1CCC[C@H]1C(=O)N[C@@H](CO)C(=O)N[C@@H](CO)C(=O)NCC(=O)N[C@@H](C)C(=O)N1CCC[C@H]1C(=O)N1CCC[C@H]1C(=O)N1CCC[C@H]1C(=O)N[C@@H](CO)C(N)=O)[C@@H](C)O)C(C)C)C(=O)O,male rhesus monkey,plasma,subcutaneous,300 µg/kg,day 1,median,2 h
C[C@H]1C(=O)O[C@@H]2O[C@@]3(C)CC[C@@H]4[C@@]2(OO3)[C@H]1CC[C@]4(C)O,human,,,dose not given,day 1,,1.7 ± 0.8 h
NC1CCN(C(=O)Oc2ccc(C3CCCC4(C3)OOC3(O4)C4CC5CC(C4)CC3C5)cc2)CC1 (racemic),male Sprague-Dawley rat,plasma,intravenous,10 mg/kg,,,0.083 h
CN[C@H](CC(C)C)C(=O)N[C@H]1C(=O)N[C@@H](CC(N)=O)C(=O)N[C@H]2C(=N)N[C@H]3C(=O)N[C@H](C(=O)N[C@H](C(=O)NCCCNC(=N)N)c4cc(O)cc(O)c4-c4cc3ccc4O)[C@H](O)c3ccc(c(Cl)c3)Oc3cc2cc(c3O[C@@H]2O[C@H](CO)[C@@H](O)[C@H](O)[C@H]2O[C@H]2C[C@](C)(NCc3ccc(-c4ccc(Cl)cc4)cc3)[C@H](O)[C@H](C)O2)Oc2ccc(cc2Cl)[C@H]1O,mouse,,intravenous,10 mg/kg,,,0.36 h
CN1CCCCC1C(=O)NC(Cc1ccc(-c2ccccc2)cc1)B(O)O (stereo not drawn),rat,plasma,oral,1 mg/kg,,,0.5 h

# Repeated from above:
Compound,host,sample,route,dose,time,notes,Tmax
CN[C@H](CC(C)C)C(=O)N[C@H]1C(=O)N[C@@H](CC(N)=O)C(=O)N[C@H]2C(=N)N[C@H]3C(=O)N[C@H](C(=O)N[C@H](C(=O)NCCCNC(=N)N)c4cc(O)cc(O)c4-c4cc3ccc4O)[C@H](O)c3ccc(c(Cl)c3)Oc3cc2cc(c3O[C@@H]2O[C@H](CO)[C@@H](O)[C@H](O)[C@H]2O[C@H]2C[C@](C)(NCc3ccc(-c4ccc(Cl)cc4)cc3)[C@H](O)[C@H](C)O2)Oc2ccc(cc2Cl)[C@H]1O,mouse,,intravenous,10 mg/kg,,,0.36 h
